Experimental data pooled from the literature.
Lines come from different studies, so protocols differ. ± marks the error that the study gave. In brackets after ≈: the same amount, converted by molar mass.
Organism: Acinetobacter baumannii

CCCCCCCCCCCCCC(=O)N[C@@H](Cc1ccc2ccccc2c1)C(=O)N[C@@H](CCCCN)C(=O)N[C@@H](CCCCN)C(=O)N[C@@H](CCCCN)C(=O)N[C@@H](CCCCN)C(N)=O
MBC (clinical isolate): 128 µg/mL (≈ 137 µM)

Oc1ccc(F)cc1-c1nc2c(Cl)cc(Cl)cc2[nH]1
MIC change (colistin-resistant; concentration not given, with: polymyxin B nonapeptide up to 10 µg/mL): no effect

CCCCCCCCCCCCCC(=O)N[C@@H](Cc1ccc(O)cc1)C(=O)N[C@@H](CCCCN)C(=O)N[C@@H](CCCCN)C(=O)N[C@@H](CCCCN)C(=O)N[C@@H](CCCCN)C(N)=O
MBC (clinical isolate): 128 µg/mL (≈ 142 µM)

CC(C)C[C@H](NC(=O)[C@H](Cc1ccc(O)cc1)NC(=O)[C@@H]1CCCN1C(=O)[C@H](CCCNC(=N)N)NC(=O)[C@@H]1CCCN1C(=O)[C@H](CCCCN)NC(=O)[C@H](CC(=O)O)NC(=O)[C@@H]1CCCN1C(=O)[C@H](CCCNC(=N)N)NC(=O)C1(N)CCCCC1)C(=O)N1CCC[C@H]1C(=O)N[C@@H](CCCNC(=N)N)C(=O)N1CCC[C@H]1C(=O)N[C@@H](CCCNC(=N)N)C(=O)N1CCC[C@H]1C(=O)N1CCC[C@H]1C(=O)N[C@@H](CCCNC(=N)N)C(=O)N1CCC[C@H]1C(=O)N[C@H](C(=O)N[C@@H](CCCNC(=N)N)C(=O)N[C@@H](CSc1c(F)c(F)c(-c2c(F)c(F)c(SC[C@H](NC(=O)[C@H](CCCNC(=N)N)NC(=O)[C@@H](NC(=O)[C@@H]3CCCN3C(=O)[C@H](CCCNC(=N)N)NC(=O)[C@@H]3CCCN3C(=O)[C@@H]3CCCN3C(=O)[C@H](CCCNC(=N)N)NC(=O)[C@@H]3CCCN3C(=O)[C@H](CCCNC(=N)N)NC(=O)[C@@H]3CCCN3C(=O)[C@H](CC(C)C)NC(=O)[C@H](Cc3ccc(O)cc3)NC(=O)[C@@H]3CCCN3C(=O)[C@H](CCCNC(=N)N)NC(=O)[C@@H]3CCCN3C(=O)[C@H](CCCCN)NC(=O)[C@H](CC(=O)O)NC(=O)[C@@H]3CCCN3C(=O)[C@H](CCCNC(=N)N)NC(=O)C3(N)CCCCC3)C(C)C)C(=O)NN)c(F)c2F)c(F)c1F)C(=O)NN)C(C)C
membrane depolarization (DiOC2 flow cytometry; 0.1 × MBC): > 50%

CCCCCCCC(=O)N[C@@H](CCCCNS(=O)(=O)c1cccc2c(N(C)C)cccc12)C(=O)N[C@H](C(=O)N[C@@H](CCN)C(=O)N[C@H]1CCNC(=O)[C@H]([C@@H](C)O)NC(=O)[C@H](CCN)NC(=O)[C@H](CCN)NC(=O)[C@H](CC(C)C)NC(=O)[C@@H](Cc2ccccc2)NC(=O)[C@H](CCN)NC1=O)[C@@H](C)O
Kd (binding, fluorometric titration; ATCC 19606 colistin-susceptible, whole cells; pH 7.0): 7.9 ± 2.6 µM

CC(C)C[C@H](NC(=O)[C@H](Cc1ccc(O)cc1)NC(=O)[C@@H]1CCCN1C(=O)[C@H](CCCNC(=N)N)NC(=O)[C@@H]1CCCN1C(=O)[C@H](CCCCN)NC(=O)[C@H](CC(=O)O)NC(=O)[C@@H]1CCCN1C(=O)[C@H](CCCNC(=N)N)NC(=O)C1(N)CCCCC1)C(=O)N1CCC[C@H]1C(=O)N[C@@H](CCCNC(=N)N)C(=O)N1CCC[C@H]1C(=O)N[C@@H](CCCNC(=N)N)C(=O)N1CCC[C@H]1C(=O)N1CCC[C@H]1C(=O)N[C@@H](CCCNC(=N)N)C(=O)N1CCC[C@H]1C(=O)N[C@H](C(=O)N[C@@H](CCCNC(=N)N)C(=O)N[C@@H](CSc1c(F)c(F)c(SC[C@H](NC(=O)[C@H](CCCNC(=N)N)NC(=O)[C@@H](NC(=O)[C@@H]2CCCN2C(=O)[C@H](CCCNC(=N)N)NC(=O)[C@@H]2CCCN2C(=O)[C@@H]2CCCN2C(=O)[C@H](CCCNC(=N)N)NC(=O)[C@@H]2CCCN2C(=O)[C@H](CCCNC(=N)N)NC(=O)[C@@H]2CCCN2C(=O)[C@H](CC(C)C)NC(=O)[C@H](Cc2ccc(O)cc2)NC(=O)[C@@H]2CCCN2C(=O)[C@H](CCCNC(=N)N)NC(=O)[C@@H]2CCCN2C(=O)[C@H](CCCCN)NC(=O)[C@H](CC(=O)O)NC(=O)[C@@H]2CCCN2C(=O)[C@H](CCCNC(=N)N)NC(=O)C2(N)CCCCC2)C(C)C)C(=O)NN)c(F)c1F)C(=O)NN)C(C)C
membrane depolarization (DiOC2 flow cytometry; 0.1 × MBC): > 50%

C[C@@H](O)[C@H](NC(=O)c1ccc(C#Cc2ccc(CN3CCOCC3)cc2)cc1)C(=O)NO
MIC90 (microbial growth, broth dilution; clinical isolate): > 64 µg/mL

CC(=O)N[C@H](CCCCN)C(=O)N[C@H](CC(C)C)C(=O)N[C@H](CCCCN)C(=O)N[C@H](CO)C(=O)N[C@H](CC(C)C)C(=O)N[C@H](CC(C)C)C(=O)N[C@H](CCCCN)C(=O)N[C@@H](C(=O)N[C@H](CC(C)C)C(=O)N[C@H](CO)C(=O)N[C@H](CCCCN)C(=O)N[C@H](C)C(=O)N[C@H](CCCCN)C(=O)N[C@H](CCCCN)C(=O)N[C@H](CCCCN)C(=O)N[C@H](CC(C)C)C(=O)N[C@H](CC(C)C)C(=O)N[C@H](CCCCN)C(=O)N[C@@H](C(=O)N[C@H](C)C(=O)N[C@H](CC(C)C)C(=O)N[C@H](CCCCN)C(=O)N[C@H](C)C(=O)N[C@H](CC(C)C)C(=O)N[C@H](CO)C(=O)N[C@H](CCCCN)C(N)=O)[C@H](C)O)[C@H](C)O
MIC geometric mean (11 isolates; 24 h, 37 °C): 0.5 µM (≈ 1.46 µg/mL)

CCCCCCCCCCCCCCCCC(=O)N[C@@H](CCCCN)C(=O)N[C@@H](CCCCN)C(=O)N(CCCCN)CC(=O)N[C@@H](CCCCN)C(=O)N[C@@H](CCCCN)C(N)=O
MBC (clinical isolate): 128 µg/mL (≈ 141 µM)

Cc1ccc2ccc3ccc(C)nc3c2n1.Cc1ccc2ccc3ccc(C)nc3c2n1.O.[Cl-].[Cl-].[Cl-].[Yb+3]
inoculation time (bacterial growth): 48 h

CCCCCCCCCCCCCCC(=O)N[C@@H](CCCCN)C(=O)N[C@@H](CCCCN)C(=O)N[C@@H](CCCCN)C(=O)N[C@@H](CCCCN)C(=O)N[C@@H](CCCCN)C(N)=O
MBC (clinical isolate): 128 µg/mL (≈ 145 µM)

Oc1cc(C(F)(F)F)ccc1-c1nc2c(C(F)(F)F)cc(C(F)(F)F)cc2[nH]1
MIC change (colistin-resistant; concentration not given, with: polymyxin B nonapeptide up to 10 µg/mL): no effect

Excerpt of the above:
Oc1ccc(F)cc1-c1nc2c(Cl)cc(Cl)cc2[nH]1
MIC change (colistin-resistant; concentration not given, with: polymyxin B nonapeptide up to 10 µg/mL): no effect

CCCCCCCCCCCCCC(=O)N[C@@H](Cc1ccc(O)cc1)C(=O)N[C@@H](CCCCN)C(=O)N[C@@H](CCCCN)C(=O)N[C@@H](CCCCN)C(=O)N[C@@H](CCCCN)C(N)=O
MBC (clinical isolate): 128 µg/mL (≈ 142 µM)
